Measurements from different studies.
Lines come from different studies, so protocols differ. Numbers after ± are the reported error.
PYL4: PYL4 (Arabidopsis thaliana, UniProt O80920)
ADRB2: Beta-2 adrenergic receptor (ADRB2, Homo sapiens, UniProt P07550)
FPR1: fMet-Leu-Phe receptor (FPR1, Homo sapiens, UniProt P21462)
IDE: Insulin-degrading enzyme (IDE, Homo sapiens, UniProt P14735)
Cone cGMP-gated channel: Cone cGMP-gated channel (Morone saxatilis, UniProt Q3I0N1+Q3I0N2)
ATP2A2: ATP2A2 (Sus scrofa, UniProt P11607)
PPARG: Peroxisome proliferator-activated receptor gamma (PPARG, Homo sapiens, UniProt P37231)

O=C(Cc1cc(C2CC2)c(-n2cc(CNC(=O)c3cc(Br)co3)nn2)c(C2CC2)c1)NC1(C(=O)O)CCCCC1 — EC50 (PYL4; phosphatase activity recovery, antagonist; together with: HAB1, ABA 5000 nM): 0.197 ± 0.037 µM
CCn1c(-c2nc3cc(C(=O)N4CCC[C@@H](N)C4)cc(OC)c3n2C)cc2cccnc21 — EC50 (ADRB2; agonist, TR-FRET): > 31.6 µM
O=C(Cc1cc(C2CC2)c(-n2cc(CNC(=O)c3cccc4c3OC(F)(F)O4)nn2)c(C2CC2)c1)NC1(C(=O)O)CCCCC1 — EC50 (PYL4; phosphatase activity recovery, antagonist; together with: HAB1, ABA 5000 nM): 0.726 ± 0.077 µM
N#Cc1ccc(C[C@@H](Nc2nnc(-c3ccc(F)cc3)o2)C(=O)N2CCc3ccccc32)cc1 — EC50 (FPR1; calcium mobilization, agonist; HL-60 transfected with FPR1; inactive up to 50 µM): > 50 µM
Cc1cccc(C(=O)NCc2cn(-c3c(C4CC4)cc(CC(=O)NC4(C(=O)O)CCCCC4)cc3C3CC3)nn2)n1 — EC50 (PYL4; phosphatase activity recovery, antagonist; together with: HAB1, ABA 5000 nM): 0.585 ± 0.096 µM
O=C(O)CCCc1cc2cc(Cl)ccc2n1S(=O)(=O)c1ccc2ncsc2c1 — EC50 (Peroxisome proliferator-activated receptor delta (Ppard, Mus musculus, UniProt P35396); reporter gene, agonist, luciferase reporter; mouse; serum-free): 1.4 µM
CCCCCCCC/C=C\CCCCCCCC(=O)NCCc1ccc(O)c(O)c1 — EC50 (Transient receptor potential cation channel subfamily V member 1 (Trpv1, Mus musculus, UniProt Q704Y3, R580K); ion current, agonist, whole-cell patch clamp; 24 °C, R580K, +80 mV): 0.09 ± 0.02 µM
CCCCCCOC(=O)c1ccccc1C(=O)c1ccc(N(CC)CC)cc1O — EC50 (Androgen receptor (AR, Homo sapiens, UniProt P10275); reporter gene, agonist; GR knock-out cells): > 100 µM
Cc1ccc(C)c(-c2ccc([C@@H]3[C@@H](CO)N4CCCCN(S(=O)(=O)c5ccccc5C)C[C@@H]34)cc2)c1 — EC50 (IDE; enzyme activity, inhibitor, fluorescence kinetic; together with: Mca-RPPGFSAFK(Dnp)-OH substrate): 0.054 µM
Nc1nc2c(ncn2[C@@H]2O[C@@H]3COP(=O)(O)O[C@H]3[C@H]2O)c(=O)[nH]1 — EC50 (Cone cGMP-gated channel; channel current, agonist, suction electrode; Morone saxatilis, cone outer segments; together with: 0.2 µM Ca2+): 157 ± 19.8 µM
CCCCCCCC/C=C\CCCCCCCC(=O)NCCO — EC50 (Glucose-dependent insulinotropic receptor (GPR119, Homo sapiens, UniProt Q8TDV5); agonist, cell-based): 1.92 µM
CC(C)(C)OC(=O)N1CCc2cc(CCOCCCCCc3ccccc3)ccc21 — EC50 (ATP2A2; ATPase activity, activator, NADH-coupled enzyme; enriched microsomes): 0.7 ± 0.2 µM
Cc1cccc(-c2ccc([C@@H]3[C@@H](CO)N4C(=O)CN(C(=O)Cc5ccccn5)C[C@@H]34)cc2)c1 — EC50 (IDE; enzyme activity, inhibitor, fluorogenic kinetic; together with: Mca-RPPGFSAFK(Dnp)-OH substrate): 3.3 µM
c1ccc(CCCCCOCCc2ccc3c(c2)CCCN3)cc1 — EC50 (ATP2A2; ATPase activity, activator, NADH-coupled enzyme; enriched microsomes): ~4 µM
COc1ccccc1C#Cc1ccc([C@H]2[C@H]3CN(C(=O)C4CCC4)CCCCN3[C@H]2CO)cc1 — EC50 (IDE; enzyme activity, inhibitor, fluorogenic kinetic; together with: Mca-RPPGFSAFK(Dnp)-OH substrate): > 100 µM
CCCCCC(O)CC(=O)O (centres unmarked) — EC50 (Hydroxycarboxylic acid receptor 3 (HCAR3, Homo sapiens, UniProt P49019); agonist, cell-based): 571 µM
Cc1ccccc1-c1ccc([C@H]2[C@@H]3CN(S(=O)(=O)c4cn(C)cn4)C[C@H]2N3)cc1 — EC50 (IDE; enzyme activity, inhibitor, fluorogenic kinetic; together with: Mca-RPPGFSAFK(Dnp)-OH substrate): 3.9 µM
Cn1cc2c(C(=O)O)ccc(NS(=O)(=O)c3ccc(OCC4CCC4)c(Cl)c3)c2n1 — EC50 (ADRB2; agonist): > 10 µM
CCO[C@@H](Cc1ccc(OCCn2c(C)ccc2-c2ccc(SC)cc2)cc1)C(=O)O — EC50 (PPARG; receptor activation, agonist, luciferase reporter; serum-free, species human): 0.3 µM
Cc1ccccc1-c1ccc([C@H]2[C@@H](CO)N3CCCCN(C(=O)c4cccnc4)C[C@@H]23)cc1 — EC50 (IDE; enzyme activity, inhibitor, fluorogenic kinetic; together with: Mca-RPPGFSAFK(Dnp)-OH substrate): 12.5 µM
N#Cc1ccc(C[C@H](Nc2nnc(-c3ccc(F)cc3)s2)C(=O)N2CCc3ccccc32)cc1 — EC50 (FPR1; calcium mobilization, agonist; HL-60 transfected with FPR1; inactive up to 50 µM): > 50 µM
CC(=O)Nc1ccc(S(=O)(=O)N2CCCCN3[C@H](CO)[C@@H](c4ccc(-c5cccc(C)c5C)cc4)[C@@H]3C2)c(C)c1 — EC50 (IDE; enzyme activity, inhibitor, fluorescence kinetic; together with: Mca-RPPGFSAFK(Dnp)-OH substrate): 1.6 µM
N#Cc1ccc(C[C@@H](NC(=O)c2cc3ccccc3[nH]2)C(=O)N2CCc3ccccc32)cc1 — EC50 (FPR1; calcium mobilization, agonist; HL-60 transfected with FPR1; inactive up to 50 µM): > 50 µM
OC[C@H]1O[C@H](O[C@]2(CCl)O[C@H](CCl)[C@@H](O)[C@@H]2O)[C@H](O)[C@@H](O)[C@H]1Cl — EC50 (T1R2/T1R3 (Homo sapiens, UniProt Q7RTX0+Q8TE23); receptor activation, agonist, luminescence; stably transfected cells): 410 µM
Nc1nc(O)c2nc(Br)n([C@@H]3O[C@@H]4COP(=O)(O)O[C@H]4[C@H]3O)c2n1 — EC50 (Cone cGMP-gated channel; cGMP-gated current, suction electrode; striped bass (Morone saxatilis), single cone outer segment; together with: Ca2+ 0 µM): 15.1 µM
O=C(Cc1cc(C2CC2)c(-n2cc(CNC(=O)c3ccc4ccccc4n3)nn2)c(C2CC2)c1)NC1(C(=O)O)CCCCC1 — EC50 (PYL4; phosphatase activity recovery, antagonist; together with: HAB1, ABA 5000 nM): 0.171 ± 0.028 µM
N#Cc1ccc(C[C@@H](NC(=O)c2cc3ccc(F)cc3[nH]2)C(=O)N2CCc3ccccc32)cc1 — EC50 (FPR1; calcium mobilization, agonist; HL-60 transfected with FPR1; inactive up to 50 µM): > 50 µM
NC(=O)CC[C@@H]1NC(=O)/C=C/C(=O)N[C@H](C(=O)NCCOCCOCCNC(=O)c2ccc3c(c2)C(=O)OC32c3ccc(O)cc3Oc3cc(O)ccc32)CCCCNC(=O)[C@@H](Cc2ccc(C(=O)c3ccccc3)cc2)NC(=O)[C@H](CC2CCCCC2)NC1=O — EC50 (IDE; enzyme activity, inhibitor, fluorescence kinetic; together with: Mca-RPPGFSAFK(Dnp)-OH substrate): 0.1 µM
CCO[C@H](COc1ccc(C(F)(F)F)cc1)CSc1ccc(OCC(=O)O)c(C)c1 — EC50 (PPARG; receptor activation, agonist, luciferase reporter; serum-free, species human): 7 µM
N#Cc1ccc(C[C@@H](Nc2ncc(-c3ccc(F)cc3)o2)C(=O)N2CCc3ccccc32)cc1 — EC50 (FPR1; calcium mobilization, agonist; HL-60 transfected with FPR1; inactive up to 50 µM): > 50 µM
O=C(Cc1cc(C2CC2)c(-n2cc(CNC(=O)c3ccc4cccc(F)c4n3)nn2)c(C2CC2)c1)NC1(C(=O)O)CCCCC1 — EC50 (PYL4; phosphatase activity recovery, antagonist; together with: HAB1, ABA 5000 nM): 0.138 ± 0.011 µM
N#Cc1ccc(C[C@@H](NC(=O)c2cc3cc([N+](=O)[O-])ccc3[nH]2)C(=O)N2CCc3ccccc32)cc1 — EC50 (FPR1; calcium mobilization, agonist; HL-60 transfected with FPR1; inactive up to 50 µM): > 50 µM
O=C(Cc1cc(C2CC2)c(-n2cc(CNC(=O)c3ccc(Br)o3)nn2)c(C2CC2)c1)NC1(C(=O)O)CCCCC1 — EC50 (PYL4; phosphatase activity recovery, antagonist; together with: HAB1, ABA 5000 nM): 0.338 ± 0.043 µM
CC(=O)NO — EC50 (Urease subunit alpha (ureC, Proteus mirabilis, UniProt P17086)): 68300 ± 400 µM
CCCCC[C@H](O)/C=C/[C@H]1[C@H](O)CC(=O)[C@@H]1C/C=C\CCCC(=O)O — EC50 (Prostaglandin E2 receptor EP1 subtype (PTGER1, Homo sapiens, UniProt P34995, G92A/P39A); IP1 accumulation, agonist; AD293): 0.069 µM
Cc1cccc(-c2ccc([C@H]3[C@@H](CO)N4CCCCN(Cc5cccnc5)C[C@H]34)cc2)c1 — EC50 (IDE; enzyme activity, inhibitor, fluorogenic kinetic; together with: Mca-RPPGFSAFK(Dnp)-OH substrate): 10.7 µM
N#Cc1ccc(C[C@H](Nc2nnc(-c3ccc(Br)cc3)s2)C(=O)N2CCc3ccccc32)cc1 — EC50 (FPR1; calcium mobilization, agonist; HL-60 transfected with FPR1; inactive up to 50 µM): > 50 µM
CCOCc1nc(O)c(-c2nnc(Cc3ccc(Cl)cn3)o2)c(O)c1-c1c(OC)cccc1OC — EC50 (Apelin receptor (APLNR, Homo sapiens, UniProt P35414); β-arrestin1 recruitment, agonist, BRET; HEK293): 0.00881 ± 0.00026 µM

Excerpt of the above:
CCCCC[C@H](O)/C=C/[C@H]1[C@H](O)CC(=O)[C@@H]1C/C=C\CCCC(=O)O — EC50 (Prostaglandin E2 receptor EP1 subtype (PTGER1, Homo sapiens, UniProt P34995, G92A/P39A); IP1 accumulation, agonist; AD293): 0.069 µM
N#Cc1ccc(C[C@@H](NC(=O)c2cc3ccc(F)cc3[nH]2)C(=O)N2CCc3ccccc32)cc1 — EC50 (FPR1; calcium mobilization, agonist; HL-60 transfected with FPR1; inactive up to 50 µM): > 50 µM
